Experimental data collected from several papers.
Parts stem from different laboratories: compare values within a part only.

Study 1 — technique: RNA Bind-n-Seq; form: RNA; sample: in vitro; tested at: 365 nM; baseline: no-protein control; reading: higher = stronger binding
Target: RNA binding protein fox-1 homolog 2, RRM domain, GST-SBP tag (RBFOX2, Homo sapiens, UniProt O43251-10, residues 100-194)
Setting: natural RNA segment, single round, ends assumed
Target sequence (chain): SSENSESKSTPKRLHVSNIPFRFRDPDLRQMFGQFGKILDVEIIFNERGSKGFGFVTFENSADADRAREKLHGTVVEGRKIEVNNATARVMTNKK
`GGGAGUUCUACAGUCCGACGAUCGAGGCCUAUUGCUGGAGUUCAGAUACUGCAGCUCCUCUUGUUUUUCUGCACUGUGUUUGCCAGCCCUGCCCCCAUCUGAUGGACCAGGCAGUCCUUUAUCUGGAGGGAAAUGGAAUUCUCGGGUGCCAA` — result for “RBNS enrichment (R)”: 0.372.
`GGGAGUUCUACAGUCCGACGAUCUUUUUUUUUUUUUUUUAAACUAGGAGAACCAAAUCUGGAAGCCAAAAUGUAGGCUUAGUUUGUGUGUUGUCUCUUGAGUUUGUCGCUCAUGUGUGCAACAGGGUAUGGACUGGAAUUCUCGGGUGCCAA`: “RBNS enrichment (R)” 0.695.
`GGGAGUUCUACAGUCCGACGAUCGAAAACCAGUGUUCAAUUUUUUAUCUUGUUGAGCUUGUAAAAUGCCAGCAAUUUAAAACUAGGACUUUUCCCCCCAUAAGCCAAGGAGGUAGAAUUACUAAUACAAGGGUUGGAAUUCUCGGGUGCCAA`: “RBNS enrichment (R)” 0.449.
Under “RBNS enrichment (R)”, `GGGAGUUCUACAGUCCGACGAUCUGGACUGGCCCCUUAAUUCCCACAGGCCCCCCCAGCAAGGCCAAAGGGAGGCCCCUGGGUAUUGUCCUCCUACAAGGAAGAUCCUCUUUGUUUGUUCAAAGGACCAGUUUUGGAAUUCUCGGGUGCCAA` is recorded as 0.286.
For `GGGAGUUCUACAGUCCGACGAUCGGCGUGACCCUCUUGUGAAGUACUGGUUCUGUUUCCUGAUUCCUUUUGCACUCCUCCAUCCCACCUGUGAGUGGGAGUUUACCUGUUACCCUGUAAUUAAAAACAAAGGCUGGAAUUCUCGGGUGCCAA`, “RBNS enrichment (R)” read 0.662.
`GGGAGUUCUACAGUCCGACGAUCACCAAAACCACGCCGAGCACAGUGACUGUUUGACUCUUGGUAUUCAGAAGUCUGUAAUGAAUGUAAUUAUGUUUAGGCCAGUAAAUGAUGUAGAUUCGUCCUUUAUUGGUUGGAAUUCUCGGGUGCCAA`: “RBNS enrichment (R)” 0.38.
`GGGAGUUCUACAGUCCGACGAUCCCUGCUCCACACCCCUAUUUUCCUCUUAAUAAUACGUUUGGGUGAAGACAAAUUAGUGUUUAGUAAUUGCAUCAUCUCUGUGCUUACCUAUACAAACAUAAGUUUAUUUUUGGAAUUCUCGGGUGCCAA` — result for “RBNS enrichment (R)”: 0.396.
For `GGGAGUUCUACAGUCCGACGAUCGAAAAUCUGCUCUGUGGAAAGAAAGAACUGUCUCUACCAGGGUCAAGAGCAUGAACGCAUCAAUAGAAAGAACUCGGGGAAACAUCCCAUCAACAGGACUACACACUUGUUGGAAUUCUCGGGUGCCAA`, “RBNS enrichment (R)” read 13.2.
`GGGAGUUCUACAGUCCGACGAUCUCCUUCCCUCCCCGCAACCACCCCAGGCUCCCCUGGGAGGCUGCAGUUGUGGUACACGUCCCCGGUGCUGGGUUGGCCGUGACUCGGGGGCGGGGCGAUCGGGUCUCAGCUGGAAUUCUCGGGUGCCAA` — result for “RBNS enrichment (R)”: 0.385.
Under “RBNS enrichment (R)”, `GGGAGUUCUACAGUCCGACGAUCUCUUUUGUACAAAUAUCUACAAAGCAGAUAAUAUCCCUAUCCAGUGCUUGCCCUUGGAAUUGUCUCUAAAUGCAUCAAGCAUACAAUAAAAAAAACUGAAAUUAACAUCCUGGAAUUCUCGGGUGCCAA` is recorded as 0.735.
`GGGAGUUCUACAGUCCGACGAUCGACCACGGUUCUGAGCAAGUCUGCACAACAGCACCAAAAGGAGACCCCGAGGCCCAAAGAUAAACUGCUACAAUGCUCCAGAACAAUCUUUUCUCUCCUCCCCAGAGGCCUGGAAUUCUCGGGUGCCAA`: “RBNS enrichment (R)” 0.408.
Under “RBNS enrichment (R)”, `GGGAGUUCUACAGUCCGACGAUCCUCAAUCUUGACCAGACAAGAGAACAGUUAAGUUCUCUCAGUUGGGUAGUAACUUGAAUACCAGUCUAUUUAUCAGUUGGUUUCAACACAGAGGUUUCAAGUGGAAAGCCUGGAAUUCUCGGGUGCCAA` is recorded as 0.287.

Study 2 — technique: protein-binding microarray; form: double-stranded DNA, one strand shown; sample: in vitro; tested at: 2540 nM top; setting: 60-bp whole probe; added: salmon DNA 0.4 mg/ml; baseline: random background probes; reading: higher = stronger binding; constant ends, left off below: GCCTAGCAC … GTCTTGATTCGCTTGACGCTGCTG
Target: Interferon regulatory factor 3, full length, phosphomimetic (IRF3, Homo sapiens, UniProt Q14653, residues 1-427, S386D/S396D/S398D/S402D/T404D/S405D)
Residues (chain): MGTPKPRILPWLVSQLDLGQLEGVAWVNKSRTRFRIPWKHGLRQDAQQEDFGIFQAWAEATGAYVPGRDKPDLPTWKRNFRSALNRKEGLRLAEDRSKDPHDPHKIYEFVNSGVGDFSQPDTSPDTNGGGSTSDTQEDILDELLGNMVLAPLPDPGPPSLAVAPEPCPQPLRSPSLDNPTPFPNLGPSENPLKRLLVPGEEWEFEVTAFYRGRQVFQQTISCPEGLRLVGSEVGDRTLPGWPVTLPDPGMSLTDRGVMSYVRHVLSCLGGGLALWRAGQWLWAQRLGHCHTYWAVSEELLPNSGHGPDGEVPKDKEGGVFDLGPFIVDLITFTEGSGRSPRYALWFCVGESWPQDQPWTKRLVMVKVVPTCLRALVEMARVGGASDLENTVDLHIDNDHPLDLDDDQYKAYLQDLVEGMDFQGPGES
Under “fitted relative affinity”, `TCACCTATCAGTTTAATACTGTGCTAG` is recorded as 1.76 z-score.
For `TCATATATTTGCTTCAGACTGTGCTAG`, “fitted relative affinity” read 0.413 z-score.
For `TCATGCTTAGTATTTTTTACTGTGCTA`, “fitted relative affinity” read -0.35 z-score.
`TTAGGTCTCGGACTCGGTTAGTGCTAG` — result for “fitted relative affinity”: 0.181 z-score.
`GACGGTATCGGGGCTGGGGACGTGCTA`: “fitted relative affinity” 0.611 z-score.
Under “fitted relative affinity”, `TCAGGTATCGGGACTGGGTTAGTGCTA` is recorded as 1.57 z-score.
`GACGACTTCGGGACTGGAGACGTGCTA` — result for “fitted relative affinity”: -0.436 z-score.
For `GCTGGTCACTCTCTGGGCTGGTGCTAG`, “fitted relative affinity” read -0.223 z-score.
For `GACGGACTGGGTCTCGGGCCGTGCTAG`, “fitted relative affinity” read -1.08 z-score.
`GAAGTAATTTCAAACCACAGGTGCTAG`: “fitted relative affinity” -0.0565 z-score.
For `TTAGATTTCGGGGTTCGATTAGTGCTA`, “fitted relative affinity” read 0.983 z-score.
Under “fitted relative affinity”, `TTAGGTATCCTTCTCCTTTAGTGCTAG` is recorded as 7.09 z-score.
Under “fitted relative affinity”, `GACGGTTTCGACACTGGGTACGTGCTA` is recorded as 3.23 z-score.
For `GACGGACTGAGGACTGGGGACGTGCTA`, “fitted relative affinity” read -0.99 z-score.
`GAAAATCAACCAGGTGGTGTGTGCTAG` — result for “fitted relative affinity”: -0.135 z-score.
For `TGTTCTTTTCTGTTGTCTGTGTGCTAG`, “fitted relative affinity” read 2.86 z-score.
`TCAATACTCGTTTACATACTGTGCTAG` — result for “fitted relative affinity”: 0.779 z-score.
For `CTAGTTAAGGTACACCAGCAGTGCTAG`, “fitted relative affinity” read 0.319 z-score.
`ATCTCTGTCCGTGCTCAGCTCGTGCTA`: “fitted relative affinity” 0.393 z-score.

Study 3 — technique: protein binding microarray; form: double-stranded DNA, one strand shown; sample: in vitro; tested at: not given; baseline: not given; reading: higher = stronger binding
Target: Histone acetyltransferase KAT6A, both winged helices, GST fusion (KAT6A, Homo sapiens, UniProt Q92794, residues 1-181)
Setting: 8-mer, flanks averaged, mean of 2 arrays, mostly near background
Target sequence (chain): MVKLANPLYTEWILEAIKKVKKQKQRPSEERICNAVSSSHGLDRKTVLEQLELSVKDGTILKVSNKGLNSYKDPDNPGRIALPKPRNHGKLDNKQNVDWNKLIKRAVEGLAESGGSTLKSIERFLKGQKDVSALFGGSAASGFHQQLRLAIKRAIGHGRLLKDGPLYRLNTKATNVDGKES
`ACGGAGGG` has an E-score of 0.0247.
For `GATGTGGC`, the E-score was 0.0423.
The E-score of `CACCTACA` is reported as -0.209.
With `GGGACCAC` the E-score was 0.0351.
The E-score of `ACCATATC` is reported as -0.0757.
`AGTATGCC` gave an E-score of -0.0289.
The E-score of `GGGCACAC` is reported as -0.185.
The E-score of `CCCTCAAC` is reported as -0.113.
For `GTAAGCAC`, the E-score was -0.0804.
`AAGCCTAA` has an E-score of -0.175.
With `CGGCTGAA` the E-score was 0.219.
For `CGAACCCA`, the E-score was -0.00237.
`CCGCCCCA` gave an E-score of -0.0343.
`ATCCTACG` gave an E-score of -0.13.
For `TGGGCCAA`, the E-score was -0.194.
The E-score of `CGTTGTAA` is reported as -0.033.
`TGCTGCAA` has an E-score of -0.157.
The E-score of `CTTTTGGC` is reported as -0.011.
`AGGGATGC` has an E-score of -0.177.

Further values, each from its own experiment
For `PhoQ, residues 284 288 289 292 302 303 TVTVVA`, the fold induction was 5.96 (PhoP, residues 12 14 15 18 19 HEGLL (Escherichia coli, UniProt P23836); Sort-seq, refers to: YFP reporter; E. coli; PhoQ-PhoP variant library, added: 10 µM Mg2+; baseline: high Mg2+ state, higher = stronger signaling).

Some of these lines once more (study 2):
For `TTAGATTTCGGGGTTCGATTAGTGCTA`, “fitted relative affinity” read 0.983 z-score.
Under “fitted relative affinity”, `TTAGGTATCCTTCTCCTTTAGTGCTAG` is recorded as 7.09 z-score.
Under “fitted relative affinity”, `GACGGTTTCGACACTGGGTACGTGCTA` is recorded as 3.23 z-score.
